Assay results of several laboratories.
A part holds a random share of what one study measured. Changes are numbered by the printed parent chain.

Sample 1
Target: CRIPT, C-terminal peptide
Method: DHFR complementation, deep sequencing
Matrix: yeast
Setting: single substitutions, model-inferred values
Baseline: wild type
Direction: higher = weaker binding
Endpoint: binding free energy change
Starting sequence: ERBIN, PDZ domain 1 (human); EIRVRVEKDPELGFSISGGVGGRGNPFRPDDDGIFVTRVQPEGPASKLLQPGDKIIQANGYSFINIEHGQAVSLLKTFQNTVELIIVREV; partner TKNYKQTSV
Variant = V39T; value = 0.33 kcal/mol
Variant = P44I; value = 1.2 kcal/mol
Variant = R3W; value = 0.22 kcal/mol
Variant = G13E; value = 1.21 kcal/mol
Variant = P41N; value = 0.233 kcal/mol
Variant = Q57E; value = -0.0302 kcal/mol
Variant = S73L; value = 0.0983 kcal/mol
Variant = E42Q; value = 0.0946 kcal/mol
Variant = F35Y; value = 0.169 kcal/mol
Variant = G52K; value = 0.307 kcal/mol
Variant = G18C; value = 1.33 kcal/mol
Variant = S46D; value = 0.0393 kcal/mol
Variant = G33Q; value = 1.13 kcal/mol
Variant = T81K; value = 0.0685 kcal/mol
Variant = A58E; value = 0.488 kcal/mol
Variant = E83D; value = 0.184 kcal/mol
Variant = D9M; value = 0.069 kcal/mol
Variant = N59D; value = 0.12 kcal/mol
Variant = G69V; value = 0.0903 kcal/mol
Variant = N80D; value = -0.0159 kcal/mol
Variant = G19S; value = 1.31 kcal/mol
Variant = V72F; value = 1.47 kcal/mol
Variant = S15K; value = 0.901 kcal/mol
Variant = G21A; value = 0.202 kcal/mol
Variant = K76D; value = 1.24 kcal/mol

Sample 2
Target: Fragile X messenger ribonucleoprotein 1, C-terminal low-complexity region (Fmr1, Mus musculus, UniProt P35922)
Method: RNA Bind-n-Seq
Molecule type: RNA
Matrix: in vitro
Tested at: 200 nM
Setting: whole 134-nt RNA, ends assumed
Added: 150 mM LiCl
Baseline: input library
Direction: higher = stronger binding
Endpoint: log2 enrichment
Each molecule: 7-deaza-guanosine replaces G
All sequences stand within: GGGAGUUCUACAGUCCGACGAUC … UGGAAUUCUCGGGUGUCAAGG
Oligonucleotide = CCUCAAGUCCUGUGCUACACAUCGUAUGUACCGAAUCGGGUGGGGUGGUGGGGAAAGUAUUAUGUUACGCCGUUCGGAUCUGCACUUCCA; value = -0.52
Oligonucleotide = AGUCCUGUGCUACACAUCGUAUGUACCGAAUCGGGGUUUGGGGAGGGGUUUUUGGGGAAAGUAUUAUGUUACGCCGUUCGGAUCUGCACU; value = -0.552
Oligonucleotide = AAGUCCUGUGCUACACAUCGUAUGUACCGAAUCAAAUUUAAACCCCCAAACCCAAAAAAGUAUUAUGUUACGCCGUUCGGAUCUGCACUU; value = 0.945
Oligonucleotide = GUCCUGUGCUACACAUCGUAUGUACCGAAUCGGGUUUUUGGGGUUUUUGGUUUUUGGGAAAGUAUUAUGUUACGCCGUUCGGAUCUGCAC; value = -1.57
Oligonucleotide = GUCCUGUGCUACACAUCGUAUGUACCGAAUCAAAUUUUUAAAUUUUUAAACCCCCAAAAAAGUAUUAUGUUACGCCGUUCGGAUCUGCAC; value = 0.624
Oligonucleotide = UCCUGUGCUACACAUCGUAUGUACCGAAUCGGGGAGGGGUUUUUGGGGAAAAAAAGGGGAAAGUAUUAUGUUACGCCGUUCGGAUCUGCA; value = -0.605
Oligonucleotide = UGUGCUACACAUCGUAUGUACCGAAUCGGGUUUUUUUGGGUUUUUUUGGGGUUUUUUUGGGGAAAGUAUUAUGUUACGCCGUUCGGAUCU; value = 1.67
Oligonucleotide = ACCAUGCAGGUGGGCAUCUUUGGGAAGUGGGGCAAGGGGGGGAUAGGGAGGGGGGUAACACUUUGGGAACAAAUGGUCCCAGGUCGUUUC; value = 1.47
Oligonucleotide = GCAGGAAGUAAAAACAAACGGAAAUGCUUCGGAUAGUGGCAGGGGUGGGGGUUGCUAAGGAAAGGGUGGGAUGGGAGUGGGUAAAGAGUU; value = 1.28
Oligonucleotide = AGUCCUGUGCUACACAUCGUAUGUACCGAAUCGGGGCCCCGGCCCCGGGGCCCCGGGAAAGUAUUAUGUUACGCCGUUCGGAUCUGCACU; value = -3.36
Oligonucleotide = CUGUGCUACACAUCGUAUGUACCGAAUCGGGUUUUUUUGGGUUUUUUUGGGAAAAAAAGGGAAAGUAUUAUGUUACGCCGUUCGGAUCUG; value = -0.901

Sample 3
Target: CCNE2, cyclin fold, Cln2 fusion (human)
Method: yeast growth competition, sequencing
Matrix: yeast
Setting: strong parent motif
Baseline: not given
Direction: higher = stronger binding
Endpoint: normalised enrichment score
Starting sequence: E2F1 docking peptide (human); PPVKRRLDLETDH
Variant = GPVKRRLDLETDH [P1G]; value = 1.42
Variant = PPNKRRLDLETDH [V3N]; value = 0.595
Variant = PPVKRYLDLETDH [R6Y]; value = 0.355
Variant = PPVKRRLDLPTDH [E10P]; value = 0.688
Variant = PPVKRRLPLETDH [D8P]; value = 0.578
Variant = PPYKRRLDLETDH [V3Y]; value = 1.25
Variant = PPVKRPLDLETDH [R6P]; value = -0.536
Variant = PHVKRRLDLETDH [P2H]; value = 1.48
Variant = PEVKRRLDLETDH [P2E]; value = 0.61
Variant = PPHKRRLDLETDH [V3H]; value = 0.776
Variant = PPVKRRLDLETDR [H13R]; value = 1.22
Variant = PPVKRRLDLETDF [H13F]; value = 0.565
Variant = EPVKRRLDLETDH [P1E]; value = 0.649
Variant = KPVKRRLDLETDH [P1K]; value = 1.59
Variant = PPVKRRIDLETDH [L7I]; value = 0.906
Variant = PPVKCRLDLETDH [R5C]; value = 0.159

Sample 4
Target: ABI1, truncated, D143A, DHFR fusion (Arabidopsis thaliana)
Method: DHFR PCA, deep sequencing
Matrix: yeast
Setting: methotrexate growth selection, single substitutions
Added: (+)-ABA 0.11 µM
Baseline: wild-type fitted maximum
Direction: higher = stronger binding
Endpoint: relative binding score
Starting sequence: PYL1, truncated, DHFR fusion (Arabidopsis thaliana); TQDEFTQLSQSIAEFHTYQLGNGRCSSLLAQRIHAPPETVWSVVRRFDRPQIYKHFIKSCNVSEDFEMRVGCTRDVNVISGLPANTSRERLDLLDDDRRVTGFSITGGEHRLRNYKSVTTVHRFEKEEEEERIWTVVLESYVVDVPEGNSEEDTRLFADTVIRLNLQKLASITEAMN; partner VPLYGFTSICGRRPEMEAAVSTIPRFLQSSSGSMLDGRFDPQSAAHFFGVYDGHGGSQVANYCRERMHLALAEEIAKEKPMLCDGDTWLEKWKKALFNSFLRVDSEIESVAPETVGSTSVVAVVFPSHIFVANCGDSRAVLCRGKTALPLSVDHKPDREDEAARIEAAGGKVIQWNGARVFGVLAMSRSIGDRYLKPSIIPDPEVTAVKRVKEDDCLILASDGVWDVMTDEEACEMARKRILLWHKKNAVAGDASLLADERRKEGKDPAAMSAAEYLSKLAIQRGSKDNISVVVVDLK
Variant = M176Q; value = 17.6%
Variant = G81T; value = 36.3%
Variant = E109A; value = -2.1%
Variant = Y115D; value = -3.14%
Variant = L82G; value = 47.8%
Variant = S117M; value = -6.35%
Variant = R113Y; value = 3.13%
Variant = R88W; value = -3.27%
Variant = I133L; value = 30.4%
Variant = T17N; value = 6.67%
Variant = Q31Y; value = 1.37%
Variant = V62E; value = 1.24%
Variant = V145I; value = 51.6%
Variant = S11F; value = 23.5%
Variant = P50T; value = 1.29%

Sample 5
Target: Protein C-ets-1 (ETS1, Homo sapiens, UniProt P14921, residues 1-441, full length assumed)
UniProt P14921, sequence (whole entry, looked up): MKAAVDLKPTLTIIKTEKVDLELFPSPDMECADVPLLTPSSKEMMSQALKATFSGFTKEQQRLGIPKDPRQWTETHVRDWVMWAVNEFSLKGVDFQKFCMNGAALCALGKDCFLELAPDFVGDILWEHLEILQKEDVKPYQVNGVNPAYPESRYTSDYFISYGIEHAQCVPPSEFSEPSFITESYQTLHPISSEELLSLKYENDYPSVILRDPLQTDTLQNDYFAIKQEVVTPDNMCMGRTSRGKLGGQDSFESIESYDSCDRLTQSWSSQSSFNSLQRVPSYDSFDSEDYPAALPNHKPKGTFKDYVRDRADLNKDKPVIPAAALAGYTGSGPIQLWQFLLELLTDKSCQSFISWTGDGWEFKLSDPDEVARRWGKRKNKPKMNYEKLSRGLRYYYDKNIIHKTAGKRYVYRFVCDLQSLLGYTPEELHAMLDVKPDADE
Method: protein-binding microarray
Molecule type: double-stranded DNA, one strand shown
Matrix: in vitro
Tested at: not given
Setting: k-mer, scored over probes, only values ≥0.25
Direction: higher = stronger binding
Endpoint: E-score
Oligonucleotide = TCCGGAAA; value = 0.481
Oligonucleotide = AACCGGAG; value = 0.297
Oligonucleotide = GACTTCCC; value = 0.416
Oligonucleotide = TGGGGGAA; value = 0.263
Oligonucleotide = AATACCGG; value = 0.34
Oligonucleotide = AGCGGATA; value = 0.444
Oligonucleotide = TAGGAAGA; value = 0.305
Oligonucleotide = CATCCGGA; value = 0.483
Oligonucleotide = CCCGCCAC; value = 0.302
Oligonucleotide = AAGGAAGG; value = 0.351
Oligonucleotide = CAACATCC; value = 0.438
Oligonucleotide = CCCATCCC; value = 0.275
Oligonucleotide = CCGCCCGG; value = 0.372
Oligonucleotide = ACCGGTTA; value = 0.303
Oligonucleotide = CCCCGGAC; value = 0.312
Oligonucleotide = CCGGATCC; value = 0.437

Sample 6
Target: Interferon regulatory factor 5, full length, phosphomimetic (IRF5, Homo sapiens, UniProt Q13568-2, residues 1-514, S451D/S453D/S456D/S462D)
Method: protein-binding microarray
Molecule type: double-stranded DNA, one strand shown
Matrix: in vitro
Tested at: 940 nM top
Setting: 60-bp whole probe
Added: salmon DNA 0.4 mg/ml
Baseline: random background probes
Direction: higher = stronger binding
Endpoint: fitted relative affinity
All sequences stand within: GCCTAGCAC … GTCTTGATTCGCTTGACGCTGCTG
Oligonucleotide = GACGGTTTCGAATTTCGGGACGTGCTA; value = 5.34 z-score
Oligonucleotide = TTAGAACTGAGACTGGAGTAGTGCTAG; value = -0.0438 z-score
Oligonucleotide = TCAGTTTTGAGCTCTGTCACTGTGCTA; value = 0.207 z-score
Oligonucleotide = TGATCTTCCTTCATGGCCTGGTGCTAG; value = 0.143 z-score
Oligonucleotide = GACTGTTTCGGTATCGGGACGTGCTAG; value = 7.74 z-score
Oligonucleotide = TTACGTATCGGGTATCGGTTAGTGCTA; value = 6.3 z-score
Oligonucleotide = TTTCCTTTATGTCCTGTCTAGTGCTAG; value = 2.78 z-score
Oligonucleotide = GACGGTTCCCTTTTCCTGATGTGCTAG; value = 0.733 z-score
Oligonucleotide = TTTGGTCTCGGTCTCGGTTAGTGCTAG; value = 7.92 z-score
Oligonucleotide = TCATACATGTGTTTAAGACTGTGCTAG; value = -0.352 z-score
Oligonucleotide = GACGATTTCGGGACTGAAGACGTGCTA; value = -0.2 z-score
Oligonucleotide = TTAGGTCCCCTTCTCCTTTAGTGCTAG; value = 0.381 z-score
Oligonucleotide = TCAACTGTGTGTTTGAGACTGTGCTAG; value = -0.588 z-score
Oligonucleotide = GACGGTTTTGGGTTTCGGGACGTGCTA; value = 3.92 z-score
Oligonucleotide = GAAGAACTGGGGTTTCGAGACGTGCTA; value = 1.66 z-score
Oligonucleotide = TCACCTTTCGGAATACCACTGTGCTAG; value = 1.7 z-score
Oligonucleotide = TTACGACTGGGGACTGGGTTAGTGCTA; value = 0.122 z-score
Oligonucleotide = GTCTCTGTTCTTTTCAGTCCGTGCTAG; value = 3.29 z-score

Sample 7
Target: Histone acetyltransferase KAT6A, both winged helices, GST fusion (KAT6A, Homo sapiens, UniProt Q92794, residues 1-181)
Method: protein binding microarray
Molecule type: double-stranded DNA, one strand shown
Matrix: in vitro
Tested at: not given
Setting: 8-mer, flanks averaged, mean of 2 arrays, mostly near background
Baseline: not given
Direction: higher = stronger binding
Endpoint: E-score
Construct (chain): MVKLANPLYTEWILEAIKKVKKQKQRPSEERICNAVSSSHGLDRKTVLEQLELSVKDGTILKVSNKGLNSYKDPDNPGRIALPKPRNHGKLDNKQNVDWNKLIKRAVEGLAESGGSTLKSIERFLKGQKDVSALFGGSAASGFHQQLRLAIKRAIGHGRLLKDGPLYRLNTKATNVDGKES
Oligonucleotide = CATTGACG; value = 0.0986
Oligonucleotide = AGGCCCTC; value = -0.117
Oligonucleotide = AACCCCAT; value = -0.178
Oligonucleotide = AGAGGGAG; value = -0.228
Oligonucleotide = CCTTCGTC; value = -0.131
Oligonucleotide = CAGTAGGA; value = -0.147
Oligonucleotide = CCCATACA; value = -0.2
Oligonucleotide = CACCGAGC; value = -0.0095
Oligonucleotide = GCGTCGTA; value = 0.202
Oligonucleotide = TACGAATA; value = -0.175
Oligonucleotide = CACGGCCA; value = 0.128
Oligonucleotide = CCGCCCTA; value = 0.0733
Oligonucleotide = AAGTAATT; value = -0.174
Oligonucleotide = AACCCACG; value = -0.148
Oligonucleotide = CACGAAGA; value = -0.0755
Oligonucleotide = AATGTTTC; value = 0.0777
Oligonucleotide = CCAGATCC; value = -0.157
Oligonucleotide = ACTGGATG; value = -0.13
Oligonucleotide = ATAGAAAC; value = 0.00929
Oligonucleotide = AAGTTAAT; value = -0.164
Oligonucleotide = ACTGACCC; value = -0.122

For quick reference, copied from above (sample 3):
Variant = EPVKRRLDLETDH [P1E]; value = 0.649
Variant = KPVKRRLDLETDH [P1K]; value = 1.59
Variant = PPNKRRLDLETDH [V3N]; value = 0.595
Variant = GPVKRRLDLETDH [P1G]; value = 1.42
Variant = PPYKRRLDLETDH [V3Y]; value = 1.25
Variant = PEVKRRLDLETDH [P2E]; value = 0.61
Variant = PPVKRYLDLETDH [R6Y]; value = 0.355
